Measurements collected from several papers.
Each line is one published result; not all experiments were run side by side. ± marks the error that the study gave.

CC(C)(C)NCC(SS(=O)(=O)O)c1ccccc1 (centres unmarked) — AUC(0-t) (Swiss Webster CFW mouse, female, plasma; intravenous, 15 mg/kg, from 0 h to last): 2510 ng·h/mL
N#CC1(c2ccc3c(N)ncnn23)OC(COP(=O)(O)O)C(O)C1O (centres unmarked) — AUC(0-t) (LC-MS/MS; CD-1 mouse, kidney; oral, 100 mg/kg of remdesivir): 119000 nmol·h/kg
O=C(Cc1ccc(-c2ccc(OCCN3CCOCC3)cc2)cn1)NCc1ccc(F)cc1 — AUC(0-t) (ICR mouse; intravenous, 2 mg/kg): 840 ± 110 ng·h/mL
Cc1cccc(O[C@H]2CCC[C@@H](C(C)CNCc3ccncc3)C2)c1 (relative stereo) — AUC(0-t) (C57BL/6 mouse female, brain; oral, 25 mg/kg): 8270 ng·h/mL
CCCCCCCCCCCCCCCCCC(=O)Nc1ccn(C2OC(CO)C(O)C2(F)F)c(=O)n1 (centres unmarked) — AUC(0-t) (mouse; iv bolus, 30 mg/kg gemcitabine equivalent): 86200 ± 5400 ng·h/mL
NC(=O)c1ccc(C(=O)NOCc2ccc(Sc3cccc(Cl)c3)c(C(F)(F)F)c2)cc1 — AUC(0-t) (male ICR mouse, plasma; oral, 60 mg/kg): 8130 ng·h/mL
O=C(CCCCC[N+]#[C][99Tc-5]([C]#[N+]CCCCCC(=O)N[C@H]1C(O)O[C@H](CO)[C@@H](O)[C@@H]1O)([C]#[N+]CCCCCC(=O)N[C@H]1C(O)O[C@H](CO)[C@@H](O)[C@@H]1O)([C]#[N+]CCCCCC(=O)N[C@H]1C(O)O[C@H](CO)[C@@H](O)[C@@H]1O)([C]#[N+]CCCCCC(=O)N[C@H]1C(O)O[C@H](CO)[C@@H](O)[C@@H]1O)[C]#[N+]CCCCCC(=O)N[C@H]1C(O)O[C@H](CO)[C@@H](O)[C@@H]1O)N[C@H]1C(O)O[C@H](CO)[C@@H](O)[C@@H]1O (some centres unmarked) — AUC(0-t) (two-compartment model; CD-1 mouse, blood; dose not given, 4 h): 236 %ID/g·min
COc1ccc(NC(=O)N2CCCN3CCC(c4ccc(C#Cc5ccccc5)cc4)C3C2)cc1 (centres unmarked) — AUC(0-t) (CD-1 mouse, plasma; oral, 10 mg/kg single dose): 1950 ng·h/mL
Cc1ccc(OCC(=O)N(Cc2cccs2)c2ccn[nH]2)cc1 — AUC(0-t) (male CD-1 mouse, plasma; oral gavage, 30 mg/kg): 128 ng·h/mL
COc1cccc2c1C(=O)c1c(O)c3c(c(O)c1C2=O)CC(O)(C(=O)CO)CC3OC1CC(NC(=O)C[C@H](N)C(=O)O)C(O)C(C)O1 (some centres unmarked) — AUC(0-t) (healthy mouse, plasma; intravenous, 5 mg/kg; relative to: doxorubicin): ~8.14 fold
C[C@@H]1Cc2c([nH]c3ccccc23)[C@@H](c2c(F)cc(/C=C/C(=O)O)cc2F)N1C12CC(C1)C2 — AUC(0-t) (Balb/c nude mouse, MCF7 xenograft, plasma; oral, 5 mg/kg, steady state): 9900 ng·h/mL

Excerpt of the above:
COc1cccc2c1C(=O)c1c(O)c3c(c(O)c1C2=O)CC(O)(C(=O)CO)CC3OC1CC(NC(=O)C[C@H](N)C(=O)O)C(O)C(C)O1 (some centres unmarked) — AUC(0-t) (healthy mouse, plasma; intravenous, 5 mg/kg; relative to: doxorubicin): ~8.14 fold
